Measurements pooled from the literature.
Each numbered part is a random draw from the data of one study; scales do not carry over between parts.

Series 1
Target: RNA binding protein fox-1 homolog 2, RRM domain, GST-SBP tag (RBFOX2, Homo sapiens, UniProt O43251-10, residues 100-194)
Technique: RNA Bind-n-Seq
Molecule type: RNA
Matrix: in vitro
Tested at: 365 nM
Notes: natural RNA segment, single round, ends assumed
Baseline: no-protein control
Reading: higher = stronger binding
Quantity: RBNS enrichment (R)
Shared flanks, not repeated: GGGAGUUCUACAGUCCGACGAUC … UGGAAUUCUCGGGUGCCAA
Target sequence (chain): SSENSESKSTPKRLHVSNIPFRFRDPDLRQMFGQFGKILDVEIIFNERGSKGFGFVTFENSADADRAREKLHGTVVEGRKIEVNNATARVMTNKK
UUGCUUUGACCUCCAGCAAGGCAGGGGCAUGGAGGGACAAGGCUGCUGCUAUCAGGACCCAUUCUGGAGCCCCAUUUCUAACCUAUGAGGCCCUGCCAGCUGUCACUCAG: 0.387
UUUGGGGACAGCCCAGUUGCCAUUGUGGGACAGAACCCCAGUCCUGCGUUUCAGGGACAUGGGGAGACAUGAAGAAGGCAGCUGCAGCUUGCUGUGGAGACCCCGUGGCU: 0.297
AUUCCACUAGUGAAAGAACCAUUUUUUAAACUUCCCUUGCCUUUUUUAUUUAUUUAAUUUUCUUGGUUUGGAGAUGUCAGUCCCAAACACCAGAGUCUGUACUUUUCUAU: 0.857
GCCAAAGUACAGCAGGAACCCACCACCUGUUUCCCUUCCUUCUCCCAUUCUACUCCCAGUCCGGAAUGCCACGAGGACCUUAACCUUGUUUCUGGCUUUAGCUGCUAGUU: 0.65
UCUCAGAGAAUCUCUGUGGAACUGCCCGUUCCAAUAUAAUAAUCUCCUCCUUUACAAGAGCUUUCCUCUCCUCUCUCUUGCUCUCAGAGACCUAUAAAUCCAACCAGUUA: 1.04

Series 2
Target: Sal-like protein 4, full length isoform A (SALL4, Homo sapiens, UniProt Q9UJQ4, residues 1-1053)
UniProt Q9UJQ4, sequence (whole entry, looked up): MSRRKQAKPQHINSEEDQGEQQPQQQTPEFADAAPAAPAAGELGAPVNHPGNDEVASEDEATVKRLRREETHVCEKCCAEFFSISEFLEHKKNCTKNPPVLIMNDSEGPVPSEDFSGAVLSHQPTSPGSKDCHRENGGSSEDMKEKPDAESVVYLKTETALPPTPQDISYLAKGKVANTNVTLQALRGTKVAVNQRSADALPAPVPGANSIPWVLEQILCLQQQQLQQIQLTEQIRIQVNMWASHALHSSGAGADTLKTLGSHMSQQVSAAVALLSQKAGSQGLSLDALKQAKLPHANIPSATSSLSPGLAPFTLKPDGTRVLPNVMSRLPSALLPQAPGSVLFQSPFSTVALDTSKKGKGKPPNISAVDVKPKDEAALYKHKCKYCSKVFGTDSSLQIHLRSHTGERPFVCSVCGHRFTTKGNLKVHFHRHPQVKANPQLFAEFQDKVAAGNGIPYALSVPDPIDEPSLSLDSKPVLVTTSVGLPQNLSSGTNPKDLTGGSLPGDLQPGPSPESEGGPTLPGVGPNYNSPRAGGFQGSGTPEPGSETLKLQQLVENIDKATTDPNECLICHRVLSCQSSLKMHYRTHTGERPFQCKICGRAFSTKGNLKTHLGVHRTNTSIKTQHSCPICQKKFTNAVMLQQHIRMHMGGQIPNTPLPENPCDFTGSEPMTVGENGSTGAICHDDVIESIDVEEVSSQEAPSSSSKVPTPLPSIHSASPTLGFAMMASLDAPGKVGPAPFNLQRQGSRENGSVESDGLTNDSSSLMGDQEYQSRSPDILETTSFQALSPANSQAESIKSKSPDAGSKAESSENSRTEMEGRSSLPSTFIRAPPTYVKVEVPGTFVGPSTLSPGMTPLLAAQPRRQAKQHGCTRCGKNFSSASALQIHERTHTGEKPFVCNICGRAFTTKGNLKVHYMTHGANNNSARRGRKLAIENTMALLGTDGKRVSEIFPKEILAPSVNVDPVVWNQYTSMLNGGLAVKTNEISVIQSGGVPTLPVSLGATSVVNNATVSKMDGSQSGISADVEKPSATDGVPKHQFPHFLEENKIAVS
Technique: universal PBM
Molecule type: double-stranded DNA, one strand shown
Matrix: in vitro
Tested at: 600 nM
Notes: 8-mer, flanks averaged, mean of replicates
Reading: higher = stronger binding
Quantity: E-score
ACACAAAA: 0.234
ATGGATGC: 0.0787
CCTTCGCA: -0.0264
ATCCCGAA: -0.0507
GCTGCTGA: -0.196

Series 3
Target: Histone acetyltransferase KAT6A, both winged helices, GST fusion (KAT6A, Homo sapiens, UniProt Q92794, residues 1-181)
Technique: protein binding microarray
Molecule type: double-stranded DNA, one strand shown
Matrix: in vitro
Tested at: not given
Notes: 8-mer, flanks averaged, mean of 2 arrays, mostly near background
Baseline: not given
Reading: higher = stronger binding
Quantity: E-score
Target sequence (chain): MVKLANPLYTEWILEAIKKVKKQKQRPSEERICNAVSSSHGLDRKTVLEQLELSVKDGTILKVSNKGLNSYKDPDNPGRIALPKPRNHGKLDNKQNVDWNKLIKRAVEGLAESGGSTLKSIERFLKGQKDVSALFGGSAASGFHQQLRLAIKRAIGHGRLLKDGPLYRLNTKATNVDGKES
AAACCACG: 0.101
ACGCTATA: 0.124
AACGATAG: -0.0281
ACGTAAAA: -0.0519
ACGCGTAT: 0.262
ACCGTATA: 0.0733

Further values, each from its own experiment
PhoQ, residues 284 288 289 292 302 303 TAVSDG — fold induction (PhoP, residues 12 14 15 18 19 HLGGL (Escherichia coli, UniProt P23836); Sort-seq, item: YFP reporter; E. coli; PhoQ-PhoP variant library, added: 10 µM Mg2+; baseline: high Mg2+ state, higher = stronger signaling): 1.04

A few entries again (series 3):
AAACCACG: 0.101
ACGCTATA: 0.124
